# Experimental data of several laboratories.
# Compare with care: the assays were run in different laboratories.
# UniProt Q9UF33, sequence (whole entry, looked up): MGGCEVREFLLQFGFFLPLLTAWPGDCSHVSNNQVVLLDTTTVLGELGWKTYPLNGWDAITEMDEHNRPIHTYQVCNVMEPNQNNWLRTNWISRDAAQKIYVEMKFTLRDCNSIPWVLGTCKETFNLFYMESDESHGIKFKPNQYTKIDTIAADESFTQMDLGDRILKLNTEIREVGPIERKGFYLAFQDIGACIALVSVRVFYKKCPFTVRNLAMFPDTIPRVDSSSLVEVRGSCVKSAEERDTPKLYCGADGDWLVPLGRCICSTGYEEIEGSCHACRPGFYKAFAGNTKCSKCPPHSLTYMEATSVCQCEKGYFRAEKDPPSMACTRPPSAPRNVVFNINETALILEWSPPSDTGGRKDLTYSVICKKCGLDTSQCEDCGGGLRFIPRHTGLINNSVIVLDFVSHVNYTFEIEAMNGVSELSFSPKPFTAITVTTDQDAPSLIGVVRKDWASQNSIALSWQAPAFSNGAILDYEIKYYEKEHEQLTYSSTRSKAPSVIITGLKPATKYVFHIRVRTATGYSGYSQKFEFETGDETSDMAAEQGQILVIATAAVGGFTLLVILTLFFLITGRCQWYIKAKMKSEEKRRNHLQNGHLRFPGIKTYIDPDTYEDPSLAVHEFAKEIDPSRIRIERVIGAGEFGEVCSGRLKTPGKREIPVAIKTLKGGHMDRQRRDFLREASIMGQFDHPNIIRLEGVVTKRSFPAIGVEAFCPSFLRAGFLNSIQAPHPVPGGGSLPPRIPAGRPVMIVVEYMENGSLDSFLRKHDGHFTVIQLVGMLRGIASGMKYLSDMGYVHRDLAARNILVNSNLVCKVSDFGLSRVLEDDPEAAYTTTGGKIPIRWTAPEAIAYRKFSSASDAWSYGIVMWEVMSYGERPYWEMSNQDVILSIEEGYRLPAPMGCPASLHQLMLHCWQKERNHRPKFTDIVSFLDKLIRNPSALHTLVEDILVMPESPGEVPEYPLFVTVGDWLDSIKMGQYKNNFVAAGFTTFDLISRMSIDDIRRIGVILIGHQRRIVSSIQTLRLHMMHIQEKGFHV
# UniProt Q9UQ88, sequence (whole entry, looked up): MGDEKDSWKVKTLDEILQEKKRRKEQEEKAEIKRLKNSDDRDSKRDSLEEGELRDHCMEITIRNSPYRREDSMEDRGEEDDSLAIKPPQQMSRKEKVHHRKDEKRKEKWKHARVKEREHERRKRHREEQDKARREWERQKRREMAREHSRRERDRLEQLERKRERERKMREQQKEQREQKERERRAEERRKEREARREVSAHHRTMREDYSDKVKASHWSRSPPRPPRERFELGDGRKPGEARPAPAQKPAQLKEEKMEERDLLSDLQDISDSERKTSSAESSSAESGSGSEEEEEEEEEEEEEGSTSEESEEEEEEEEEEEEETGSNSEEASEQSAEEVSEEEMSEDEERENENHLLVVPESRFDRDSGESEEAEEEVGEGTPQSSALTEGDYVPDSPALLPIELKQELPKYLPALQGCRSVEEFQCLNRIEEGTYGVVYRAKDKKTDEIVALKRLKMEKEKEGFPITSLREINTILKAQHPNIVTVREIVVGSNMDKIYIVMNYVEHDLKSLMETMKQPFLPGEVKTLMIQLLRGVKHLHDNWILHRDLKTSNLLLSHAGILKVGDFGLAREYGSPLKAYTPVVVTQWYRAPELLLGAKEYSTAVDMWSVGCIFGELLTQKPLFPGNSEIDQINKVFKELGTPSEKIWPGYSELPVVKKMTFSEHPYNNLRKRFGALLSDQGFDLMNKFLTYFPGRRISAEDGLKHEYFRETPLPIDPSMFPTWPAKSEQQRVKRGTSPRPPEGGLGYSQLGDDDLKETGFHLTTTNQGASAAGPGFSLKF
# UniProt Q9UPE1, sequence (whole entry, looked up): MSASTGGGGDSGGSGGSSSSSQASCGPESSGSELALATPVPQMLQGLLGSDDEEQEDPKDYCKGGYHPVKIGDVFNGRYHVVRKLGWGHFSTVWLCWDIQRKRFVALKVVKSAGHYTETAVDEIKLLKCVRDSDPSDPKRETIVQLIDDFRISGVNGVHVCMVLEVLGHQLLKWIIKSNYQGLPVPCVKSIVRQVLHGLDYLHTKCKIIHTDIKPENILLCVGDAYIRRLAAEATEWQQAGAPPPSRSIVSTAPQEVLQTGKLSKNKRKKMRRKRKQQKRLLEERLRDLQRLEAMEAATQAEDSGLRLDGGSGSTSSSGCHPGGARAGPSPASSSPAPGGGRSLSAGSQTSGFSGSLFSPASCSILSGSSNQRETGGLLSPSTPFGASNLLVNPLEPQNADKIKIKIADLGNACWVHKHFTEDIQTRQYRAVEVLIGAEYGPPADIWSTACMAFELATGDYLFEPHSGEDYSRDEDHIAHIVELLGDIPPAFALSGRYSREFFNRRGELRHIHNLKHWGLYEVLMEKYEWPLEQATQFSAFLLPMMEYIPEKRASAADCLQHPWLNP
# UniProt Q96Q40, sequence (whole entry, looked up): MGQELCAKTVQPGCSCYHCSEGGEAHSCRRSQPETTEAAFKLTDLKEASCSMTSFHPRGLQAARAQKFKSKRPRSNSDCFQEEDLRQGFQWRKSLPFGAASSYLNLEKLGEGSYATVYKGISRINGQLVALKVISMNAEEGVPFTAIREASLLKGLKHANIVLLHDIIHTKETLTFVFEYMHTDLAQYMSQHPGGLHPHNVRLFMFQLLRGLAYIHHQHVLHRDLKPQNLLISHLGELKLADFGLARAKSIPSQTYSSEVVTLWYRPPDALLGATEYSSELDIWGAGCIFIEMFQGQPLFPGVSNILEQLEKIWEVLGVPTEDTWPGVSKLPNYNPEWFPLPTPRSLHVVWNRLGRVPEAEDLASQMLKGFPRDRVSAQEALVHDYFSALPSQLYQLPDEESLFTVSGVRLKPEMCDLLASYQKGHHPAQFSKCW
SMILES,tested on,test,conditions,quantity,result
CC(C)[C@H]1NC(=O)[C@H](Cc2ccccc2)NC(=O)CNC(=O)[C@@H](Cc2ccccc2)NC(=O)[C@H](CCC(N)=O)NC(=O)[C@@H](CCCN)NC1=O,Balamuthia mandrillaris,"parasite growth, ATP luminescence",,IC90,> 16 µg/mL
COc1ccc(Nc2nn3c(-c4ccccc4)ccnc3c2C(=O)Nc2ccccc2)cc1,A549,"cell growth or viability, MTT","50 µg/mL, 48 h, serum-free",viability,47.7%
N.N.[Cl][Pt][Cl],SU-DHL-1,"cell growth or viability, ATP luminescence","10 µM, 72 h",inhibition,100%
Cc1sc2c(c1C)C(c1ccc(Cl)cc1)=N[C@@H](CC(=O)OC(C)(C)C)c1nnc(C)n1-2,OCI-Ly1,"cell growth or viability, ATP luminescence","0.1 µM, 5 days",viability,47%
Cc1nn(C)cc1-c1nc2c(N3CCN(Cc4ccc(Cl)cc4)CC3)c(Cl)cnc2[nH]1,"CDK15 (Homo sapiens, UniProt Q96Q40)","binding, competition with immobilised ligand",1 µM,remaining binding,100%
CC(C)[C@@H]1NC(=O)[C@@H](Cc2ccccc2)NC(=O)[C@H](CCCNC(=N)N)NC(=O)[C@@H]([C@H](C)O)NC(=O)[C@H](CC(N)=O)NC(=O)[C@@H](C(C)C)NC1=O,Balamuthia mandrillaris,"parasite growth, ATP luminescence",,IC50,> 16 µg/mL
Nc1ncc(-c2nc(N3CCOCC3)nc(N3CCOCC3)n2)c(C(F)F)n1,"CDK11A (Homo sapiens, UniProt Q9UQ88)","binding, competition with immobilised ligand",10 µM,remaining binding,89%
[2H]c1c([2H])c([C@]2([2H])CCCN2C(=O)C(C)(C)Oc2ccc3cn[nH]c3c2)c([2H])c([2H])c1C([2H])([2H])[2H],"SRPK3 (Homo sapiens, UniProt Q9UPE1)","binding, competition with immobilised ligand",1 µM,remaining binding,100%
O=c1cc(CSc2ccc(N=Cc3ccccc3Br)cc2)occ1O,,"ABTS scavenging, absorbance",,IC50,0.01 µM
COc1ncccc1-c1cnn2ccc(N3CCN(C(=O)OC(C)C)CC3)nc12,"EPHA6 (Homo sapiens, UniProt Q9UF33)","binding, competition with immobilised ligand",1 µM,remaining binding,100%
COc1ccc(Nc2nn3c(-c4ccccc4)ccnc3c2C(=O)Nc2ccc(Cl)cc2)cc1,A549,"cell growth or viability, MTT","100 µg/mL, 48 h, serum-free",viability,19.9%
COc1ccc(C=Nc2ccc(SCc3cc(=O)c(O)co3)cc2)cc1,,"ABTS scavenging, absorbance",,IC50,24.3 µM
